# Values quoted from earlier work as cited in several papers.
# Lines come from different studies, so protocols differ. ± gives the spread as reported.
# Sequence of UniProt P9WHE9 (whole entry, looked up): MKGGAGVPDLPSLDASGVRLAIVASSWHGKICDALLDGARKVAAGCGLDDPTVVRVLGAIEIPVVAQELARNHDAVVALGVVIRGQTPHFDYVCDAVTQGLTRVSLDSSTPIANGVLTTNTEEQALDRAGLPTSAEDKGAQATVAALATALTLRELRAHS
# Sequence of UniProt P63073 (28-217, looked up): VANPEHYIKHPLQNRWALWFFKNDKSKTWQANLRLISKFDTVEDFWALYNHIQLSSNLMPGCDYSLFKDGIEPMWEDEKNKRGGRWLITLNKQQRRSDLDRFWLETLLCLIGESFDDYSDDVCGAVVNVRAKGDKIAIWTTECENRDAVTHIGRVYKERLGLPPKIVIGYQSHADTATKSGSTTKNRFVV
# Sequence of UniProt Q9UUB1 (whole entry, looked up): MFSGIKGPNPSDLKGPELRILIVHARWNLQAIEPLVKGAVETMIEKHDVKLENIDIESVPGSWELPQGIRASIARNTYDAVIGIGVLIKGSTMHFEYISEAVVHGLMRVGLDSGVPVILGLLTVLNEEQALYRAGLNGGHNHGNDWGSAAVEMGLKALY
# Sequence of UniProt Q9Y2J8 (whole entry, looked up): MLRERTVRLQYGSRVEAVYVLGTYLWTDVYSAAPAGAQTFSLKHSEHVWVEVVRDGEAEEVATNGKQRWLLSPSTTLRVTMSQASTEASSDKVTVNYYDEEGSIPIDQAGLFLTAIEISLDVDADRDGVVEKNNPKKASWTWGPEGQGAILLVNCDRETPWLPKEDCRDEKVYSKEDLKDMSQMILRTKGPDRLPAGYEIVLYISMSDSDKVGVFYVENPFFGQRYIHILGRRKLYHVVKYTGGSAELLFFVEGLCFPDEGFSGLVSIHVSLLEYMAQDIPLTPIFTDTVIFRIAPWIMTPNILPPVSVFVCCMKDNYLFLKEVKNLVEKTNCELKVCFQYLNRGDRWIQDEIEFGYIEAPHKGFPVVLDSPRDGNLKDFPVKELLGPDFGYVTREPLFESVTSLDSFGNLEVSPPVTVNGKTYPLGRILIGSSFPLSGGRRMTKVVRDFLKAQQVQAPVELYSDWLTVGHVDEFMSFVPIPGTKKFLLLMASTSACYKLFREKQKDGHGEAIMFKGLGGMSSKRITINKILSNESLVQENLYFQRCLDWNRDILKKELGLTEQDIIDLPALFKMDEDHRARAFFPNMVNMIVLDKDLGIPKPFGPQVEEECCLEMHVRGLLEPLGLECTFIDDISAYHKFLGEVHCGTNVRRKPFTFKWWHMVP
# Sequence of UniProt O76083 (whole entry, looked up): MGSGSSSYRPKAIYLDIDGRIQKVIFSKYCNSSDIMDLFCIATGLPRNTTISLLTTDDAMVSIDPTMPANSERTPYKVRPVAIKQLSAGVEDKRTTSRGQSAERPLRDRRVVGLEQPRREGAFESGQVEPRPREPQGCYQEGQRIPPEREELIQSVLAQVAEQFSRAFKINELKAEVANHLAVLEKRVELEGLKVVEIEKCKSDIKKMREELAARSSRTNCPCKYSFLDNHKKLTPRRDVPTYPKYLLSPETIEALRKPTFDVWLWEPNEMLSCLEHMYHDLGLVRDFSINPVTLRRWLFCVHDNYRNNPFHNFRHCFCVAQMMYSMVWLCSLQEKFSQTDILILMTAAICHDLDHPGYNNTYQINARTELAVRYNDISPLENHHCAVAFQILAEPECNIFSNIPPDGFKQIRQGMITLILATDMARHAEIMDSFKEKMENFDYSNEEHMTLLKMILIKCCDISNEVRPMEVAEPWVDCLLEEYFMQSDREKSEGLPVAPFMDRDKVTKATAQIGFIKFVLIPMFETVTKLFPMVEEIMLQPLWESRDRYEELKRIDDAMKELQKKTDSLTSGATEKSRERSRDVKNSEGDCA
# Sequence of UniProt P27338 (whole entry, looked up): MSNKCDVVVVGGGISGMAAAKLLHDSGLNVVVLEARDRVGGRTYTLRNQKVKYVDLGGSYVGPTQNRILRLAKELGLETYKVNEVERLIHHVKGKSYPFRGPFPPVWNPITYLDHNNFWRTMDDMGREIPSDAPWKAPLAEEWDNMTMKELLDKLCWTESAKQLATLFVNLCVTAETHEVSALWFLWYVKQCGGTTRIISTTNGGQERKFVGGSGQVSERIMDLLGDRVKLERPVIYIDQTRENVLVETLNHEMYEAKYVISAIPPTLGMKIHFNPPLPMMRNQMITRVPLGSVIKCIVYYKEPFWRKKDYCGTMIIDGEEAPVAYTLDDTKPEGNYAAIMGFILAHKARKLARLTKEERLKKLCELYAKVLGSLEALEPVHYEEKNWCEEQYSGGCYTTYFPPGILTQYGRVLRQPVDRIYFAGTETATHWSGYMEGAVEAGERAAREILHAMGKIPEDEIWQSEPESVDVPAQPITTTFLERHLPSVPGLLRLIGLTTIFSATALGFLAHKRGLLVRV
Structure (SMILES),target,test,setting,how to read,quantity,result
CC(=O)N1N=C(c2ccc(F)cc2)CC1c1ccc(-c2cncnc2)cc1 (stereo not shown),EGFR,"kinase activity, inhibitor",,,inhibitory concentration,0.19 µM
CCCCN(CCc1ccccc1)CCc1cccc(O)c1,dopamine receptors,,concentration not given,,activity,inactive
CC(Cc1nc2c(cnn2-c2ccccc2Cl)c(=O)[nH]1)C(F)(F)F (stereo not shown),"PDE9A (Homo sapiens, UniProt O76083)",binding,,baseline: (R) over (S) enantiomer,selectivity ratio,~4 fold
CC(=O)N[C@@H](Cc1ccccc1)C(=O)N[C@@H](CC(=O)O)C(=O)N[C@@H](CC(N)=O)C(=O)N1CCC[C@H]1C(=O)N[C@H](C(=O)N[C@@H](CC(C)C)C(=O)O)C(C)C,"LDL receptor, position 807 mutant",,,baseline: native LDL receptor,internalization index,0.3
CC(=O)c1c(O)cccc1OCc1ccc(Br)cc1,"MAOB (Homo sapiens, UniProt P27338)",,,baseline: IC50 MAO-A over IC50 MAO-B,selectivity ratio,53
N=C(CF)NCCC[C@H](NC(=O)c1ccc(-c2ccccc2)cc1)c1nc2ccccc2[nH]1,"PADI2 (Homo sapiens, UniProt Q9Y2J8)",inhibitor,,,kinact/KI,20 M⁻¹ s⁻¹
C=CC(=O)N1CCC[C@@H](n2nc(-c3cn(C)c4ccccc34)c3c(N)ncnc32)C1,"EGFR (Homo sapiens, UniProt P00533, L858R/T790M)",,,,kinact,0.29 ± 0.02 min⁻¹
CCOC(=O)c1c(C(=O)OC)cn(CC(c2cn(C)c3ccccc23)c2cn(C)c3ccccc23)c1C,parasite topoisomerase IB,"enzyme activity, inhibitor",concentration not given,,activity,inactive
C[n+]1cn([C@@H]2O[C@H](COP(=O)(O)OP(=O)([O-])OP(=O)(O)OP(=O)(O)OC[C@H]3O[C@@H](n4cnc5c(=O)[nH]c(N)nc54)[C@H](O)[C@@H]3O)[C@@H](O)[C@H]2O)c2nc(N)nc(O)c21,"Eukaryotic translation initiation factor 4E, residues 28-217 (Eif4e, Mus musculus, UniProt P63073)","binding, fluorescence quenching titration",pH 7.2,,association constant,103 µM⁻¹
CN[C@H](CC(C)C)C(=O)N[C@H]1C(=O)N[C@@H](CC(N)=O)C(=O)N[C@H]2C(=N)N[C@H]3C(=O)N[C@H](C(=O)N[C@H](C(=O)O)c4cc(O)cc(O)c4-c4cc3ccc4O)[C@H](O)c3ccc(c(Cl)c3)Oc3cc2cc(c3O)Oc2ccc(cc2Cl)[C@H]1O,D-Ala-D-Lac,,concentration not given,baseline: vancomycin aglycon,binding affinity increase,600 fold
OCCn1cc(CO[C@@H]2O[C@H](CO)[C@H](O)[C@H](O)[C@H]2O)nn1,"lecA (Pseudomonas aeruginosa, UniProt Q05097)",ITC,,,ΔH,-8.3 kcal/mol
Nc1c(SC[C@H](O)[C@H](O)[C@H](O)CO)[nH]c(=O)[nH]c1=O,"ribH (Mycobacterium tuberculosis, UniProt P9WHE9)",,pH 7.0,,"Ki (uncompetitive, ESI)",57 ± 24 µM
O=C(Nc1c(-c2ccccc2)cnn1-c1ccccc1)c1ccc([N+](=O)[O-])cc1,metabotropic glutamate receptor 1 (human),receptor activity,concentration not given,,activity,inactive
CC[C@@H](C)[C@H]1NC(=O)[C@@H]([C@H](C)O)NC(=O)[C@@H](Cc2c[nH]cn2)NC(=O)CNC(=O)[C@@H](CCCNC(=N)N)NC(=O)CNC(=O)[C@@H](Cc2ccccc2)NC1=O,PAI-1,,concentration not given,,binding,no binding
O=c1[nH]c(SC[C@H](O)[C@H](O)[C@H](O)CO)c([N+](=O)[O-])c(=O)[nH]1,"6,7-dimethyl-8-ribityllumazine synthase (rib4, Schizosaccharomyces pombe, UniProt Q9UUB1)",enzyme kinetics,pH 7.0,,kcat,0.085 ± 0.00167 s⁻¹
C=CC(=O)N1CCC[C@@H](n2nc(-c3ccc4ccccc4c3)c3c(N)ncnc32)C1,"EGFR (Homo sapiens, UniProt P00533)",,,,kinact,0.19 ± 0.12 min⁻¹

# A few entries again:
Structure (SMILES),target,test,setting,how to read,quantity,result
CCCCN(CCc1ccccc1)CCc1cccc(O)c1,dopamine receptors,,concentration not given,,activity,inactive
CC(Cc1nc2c(cnn2-c2ccccc2Cl)c(=O)[nH]1)C(F)(F)F (stereo not shown),"PDE9A (Homo sapiens, UniProt O76083)",binding,,baseline: (R) over (S) enantiomer,selectivity ratio,~4 fold
